Earlier results, collected from citations in different studies.
Compare with care: the assays were run in different laboratories. ± marks the error that the study gave.

Structure (SMILES)	cell line	assay	setting	IC50 [nM]
COc1ccccc1NC(=O)N[C@H](C(=O)Nc1ccc(C(=O)NO)cc1)c1ccccc1	HCT-116	cell viability, MTT	–	4000
Oc1cccc(-c2cccc(O)n2)n1.[Cl-].[Cl-].[Ru+2].c1cnc2c(c1)ccc1cccnc12.c1cnc2c(c1)ccc1cccnc12	MCF-10A	cell viability	dark	110000
CCCCn1cc(C(=O)O)c(=O)c2cc(F)c(Nc3cccc(Cl)c3)c(N)c21	T47D	–	–	< 50000
CCN(CC)c1ccc2c(c1)Oc1cc(N(CC)CC)ccc1C21c2ccccc2C(=O)N1N=Cc1ccnc(-c2cc(C)ccn2)c1.Cc1c(C)c(-c2ccc(-c3ccccc3)cc2)[c-](C)c1C.F[P-](F)(F)(F)(F)F.[Cl-].[Ir+3]	HepG2 cancer cells	–	–	5100 ± 100
COc1cc(Nc2nnc(-c3cc4ccccc4[nH]3)s2)cc(OC)c1OC	LNCaP	cytotoxicity	–	150
N#Cc1c(NC(=O)CN2CCSCC2)c(C(=O)c2ccccc2)n2c1CCC2	MCF-7	cell growth	–	8.6
CCC1=C(O)c2c(oc(-c3ccc(OC)c4ccccc34)cc2=O)C(CC)(CC)C1=O	PC-3	cell growth, SRB	–	2390
COc1cc(/C=C/C(=O)NCCc2ccc(O)c(OC)c2)ccc1O	RAW264.7	nitric oxide production	24 h, added: LPS 100 ng/mL	> 50000
CC1=C(C)C(=O)OC(C(C)(O)C2CCC3C4CC5OC56C(O)C=CC(=O)C6(C)C4CCC32C)C1 (centres unmarked)	Hep3B	cell growth	–	1000
O=C1OCC2=C1C(c1ccccc1[N+](=O)[O-])C1=C(N2)C(=O)c2ccccc2C1=O (centres unmarked)	SK-LU-1 cells	cell growth	–	80 ± 10
Cc1ccc(Cn2cc(CN3C(=O)C4(C(C#N)=C(N)Nc5c4ccc4[nH]c6ccccc6c54)c4ccccc43)nn2)cc1 (centres unmarked)	HeLa	cell growth	–	4050
[Cl-].[Cl-].[Ru+2].c1ccc(-c2ccccn2)nc1.c1ccc(-c2ccccn2)nc1.c1cnc2c(c1)ccc1cccnc12	Caco-2	–	dark	> 100000
CCC1=C(O)c2c(oc(-c3cc4ccccc4s3)cc2=O)C(CC)(CC)C1=O	KB	cell growth, SRB	–	11200
COc1cc(NC(=O)/C(C#N)=C/c2c[nH]c3ccccc23)cc(OC)c1OC	Huh-7	cell growth	–	5000
CC1=C(CO)C(=O)O[C@@H]([C@@H](C)[C@H]2CC[C@H]3[C@@H]4C[C@H]5O[C@]56[C@@H](O)C=CC(=O)[C@]6(C)[C@H]4CC[C@]23C)C1	NCI-H460	cell growth	–	380
O=C1OCC2=C1C(c1cccc([N+](=O)[O-])c1)C1=C(N2)C(=O)c2ccccc2C1=O (centres unmarked)	KB cells	cell growth	–	1160 ± 10
O=C1c2ccccc2NC(c2ccc(O)c(O)c2)N1/N=C/c1ccc(O)c(O)c1 (centres unmarked)	human renal tubule TH-1	cytotoxicity	–	178000
CC1=CC(C)=[N+]2C1=C(CO)c1c(C)cc(C)n1[B-]2(C)C	H460	cell viability	concentration not given, white light irradiation	170 ± 20
CC1=C(C)C(=O)OC(C(C)C2CCC3C4CC5OC56C(O)C=CC(=O)C6(CO)C4CCC23C)C1 (centres unmarked)	Hs-578T	cell growth	–	470
CC(C)(C)C1=CC(=NNC(=O)c2ccncc2)C=C(C(C)(C)C)C1=O	HEK293	cell viability	–	970

Some of these lines once more:
Structure (SMILES)	cell line	assay	setting	IC50 [nM]
O=C1OCC2=C1C(c1cccc([N+](=O)[O-])c1)C1=C(N2)C(=O)c2ccccc2C1=O (centres unmarked)	KB cells	cell growth	–	1160 ± 10
